{"data": "Measurements gathered from unrelated publications", "note": "A part holds a random share of what one study measured. Changes are numbered by the printed parent chain."}
{"data": "Series 1", "target": "Protein max, full length (MAX, Homo sapiens, UniProt P61244-2, residues 1-151)", "technique": "protein-binding microarray", "form": "double-stranded DNA, one strand shown", "matrix": "in vitro", "tested at": "not given", "notes": "k-mer, scored over probes, only values ≥0.25", "direction": "higher = stronger binding"}
{"Sequence": "GCCACACC", "E-score": 0.298}
{"Sequence": "CGTGACAG", "E-score": 0.374}
{"Sequence": "GCGTGTCC", "E-score": 0.397}
{"Sequence": "CACGCATG", "E-score": 0.437}
{"Sequence": "GCACACGC", "E-score": 0.427}
{"Sequence": "TGCGAAAA", "E-score": 0.274}
{"Sequence": "GTGCTGCA", "E-score": 0.294}
{"Sequence": "CGTCACAC", "E-score": 0.27}
{"Sequence": "ACACCTGC", "E-score": 0.375}
{"Sequence": "ATGTGTGA", "E-score": 0.347}
{"Sequence": "CGTTCTCC", "E-score": 0.281}
{"Sequence": "CGCATGAG", "E-score": 0.342}
{"Sequence": "ATGCGGCG", "E-score": 0.301}
{"Sequence": "CAGGTGTA", "E-score": 0.352}
{"data": "Series 2", "target": "RNA binding protein fox-1 homolog 2, RRM domain, GST-SBP tag (RBFOX2, Homo sapiens, UniProt O43251-10, residues 100-194)", "technique": "RNA Bind-n-Seq", "form": "RNA", "matrix": "in vitro", "tested at": "365 nM", "notes": "natural RNA segment, single round, ends assumed", "reference": "no-protein control", "direction": "higher = stronger binding", "all sequences stand within": "GGGAGUUCUACAGUCCGACGAUC … UGGAAUUCUCGGGUGCCAA", "Construct (chain)": "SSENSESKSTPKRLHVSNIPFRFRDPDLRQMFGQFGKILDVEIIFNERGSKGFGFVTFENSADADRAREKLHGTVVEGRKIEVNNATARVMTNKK"}
{"Sequence": "CGGCACCUUCCUAGGCCUGGGCACAGUCACUGGCUCUGUUGCCAUCUACAUAGCUUUCUCUCUCCAGUGCCUCUACUACGUGAGGGAGGCCCAUGGCAUUGUGGUGACGG", "RBNS enrichment (R)": 0.286}
{"Sequence": "AAACAGAACACUGGAUUCUUCCUGUUAACUUCACCGAGAGUAGCUACAAAGGUGGACUUAGAGCCAAGCACAAUCUCACAACGAUUCCAGAAUUCCCUAGAGACCUCUUG", "RBNS enrichment (R)": 0.262}
{"Sequence": "CUUUUUGUAGUUUACUUAAGCCAAAAUGUGUUUUUCCCUCAAUAGCUUCGCUAAUAUUUUAAACAGUCCUGUAAAAACCCACCAAGGACUUUUUGUAUAGAAAGCACUAC", "RBNS enrichment (R)": 0.547}
{"Sequence": "AGAUGAAGGACUUGGCGAACAGAAAGCCCUUCGAGAUCUUGUGUACCCCACCUUCCCACACUGUGAGCUAAUGAUGUGUGGUUUCUCUGCACAUAAGUAAAUGUCUUCAC", "RBNS enrichment (R)": 0.365}
{"Sequence": "AAAUCUGUGUAUAAUUAGCAAUAACAGAACUAAACCAUUGUUUAGUUGCUAAUCAUAUGUUGCUUUAUCCAUAUGCUGUAUGACUCCAUAACAUGUAUGACUUUAAAUGG", "RBNS enrichment (R)": 3.52}
{"Sequence": "ACGGGACCUCCACAGUCCAAUGGCAUUGCCUGUGUGUGCUGUCAUGAAGAUACCACGGCUGUUCUGGUCAGCUCCUACCCUUACAUCUCUGUGUGUGUCGUCCCUCAUCC", "RBNS enrichment (R)": 0.615}
{"Sequence": "UUGAUUCUCUAUCGUGAUGCGAAAUUGAUGCCUGCUGCUCUACAGAAAAUGCCAACUUGGUUUUUUAACUCCUCUCACCCUGUUAGCUCUGAUUAAAAACACUGCAACCC", "RBNS enrichment (R)": 0.844}
{"Sequence": "UUAUGCUUGUUGUACCUUUAAAGUAUGCCUUAUGUACAUUCCUUUCUCCUUUUCCUGCCUCCUCCCUAAAUAGCUGCCUUCUAGUGCUGUAGCAAGGGAGCCCUACUGCA", "RBNS enrichment (R)": 1.84}
{"Sequence": "AGGGGCUCUGGGCAUGCUGUGCCUGAGCUCCCUCAAAUGCCCAACCUAAGGCUUUGUGGGUAAGAUUACUUGCCACCUGCUUACUCUUAUGAAAUAGUCCAGUGCUCAUA", "RBNS enrichment (R)": 0.366}
{"Sequence": "AGGACCCAGGAGAGUUCACGGGAGGCUUCAUCAUAUGAAAGGACAAUGUUCUGGGUUGUGCAUGAAAUUGGAUCUGUAGACACUGUGGAAACGUUUGAAAGUGUUUGUUU", "RBNS enrichment (R)": 3.34}
{"Sequence": "GAAGUUGUGAAUGAAGUUGUAGCCAUUCCCUGCCCUGCACUAUAUUUUUCAGGGUGCAUUUUAAAUACUAUUGAUUCAAACAGUGGUGGCUUGCGUUUUUUUAGGUAUAU", "RBNS enrichment (R)": 4.1}
{"Sequence": "ACCCUGCUUCUUGAGGUCCCUGGAGCCCCAGGUGGGCUGAGGGGCAGGGAGCCGGCUGUGCCCAGUAUGCCUCCUGGACCCUCCAGUUCUGCCACAGGUCUGCCGAUGCC", "RBNS enrichment (R)": 0.513}
{"data": "Series 3", "target": "CCND3, cyclin fold, Cln2 fusion (human)", "technique": "yeast growth competition, sequencing", "matrix": "yeast", "notes": "weak parent motif", "reference": "not given", "direction": "higher = stronger binding", "starting sequence": "ORC1 docking peptide (human); PRARKRLELGNLG"}
{"Change": "L7S", "normalised enrichment score": 0.141}
{"Change": "K5L", "normalised enrichment score": 0.152}
{"Change": "R6V", "normalised enrichment score": 0.0411}
{"Change": "K5E", "normalised enrichment score": 0.095}
{"Change": "K5C", "normalised enrichment score": 0.103}
{"Change": "A3G", "normalised enrichment score": 0.0824}
{"Change": "L9V", "normalised enrichment score": 0.243}
{"Change": "N11I", "normalised enrichment score": 0.096}
{"Change": "L12C", "normalised enrichment score": 0.151}
{"Change": "L9S", "normalised enrichment score": 0.198}
{"Change": "K5M", "normalised enrichment score": 0.0387}
{"Change": "A3Q", "normalised enrichment score": 0.252}
{"Change": "L7F", "normalised enrichment score": -0.0129}
{"Change": "R6I", "normalised enrichment score": 0.191}
{"data": "Series 4", "target": "RING finger protein unkempt homolog, zinc fingers 1-6, SBP tag (UNK, Homo sapiens, UniProt Q9C0B0, residues 30-357)", "technique": "RNA Bind-n-Seq", "form": "RNA", "matrix": "in vitro", "tested at": "100 nM", "notes": "RNA with constant flanks, vertebrate orthologous sites, ends assumed", "reference": "input RNA pool", "direction": "higher = stronger binding", "all sequences stand within": "GGGAGUUCUACAGUCCGACGAUC … CAACAGAGGAUUGAGCAUCA", "sequence of UniProt Q9C0B0 (30-357, looked up)": "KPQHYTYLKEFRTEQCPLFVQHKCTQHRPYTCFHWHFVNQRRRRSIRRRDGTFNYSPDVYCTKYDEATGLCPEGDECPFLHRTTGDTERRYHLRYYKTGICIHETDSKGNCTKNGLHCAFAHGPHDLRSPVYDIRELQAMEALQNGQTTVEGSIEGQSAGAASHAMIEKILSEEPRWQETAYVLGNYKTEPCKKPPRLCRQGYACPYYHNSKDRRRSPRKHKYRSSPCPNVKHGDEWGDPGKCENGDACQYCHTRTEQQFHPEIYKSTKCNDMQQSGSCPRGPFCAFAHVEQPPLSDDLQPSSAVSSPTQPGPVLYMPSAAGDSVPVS"}
{"Sequence": "CCCUCUGAACCCCAUAUCUUCUGUUUCAUAAUGCAGAAGUAUUCUUUUCAAUUAUAUUGUUAGUGGACUUGUUUUAAUUUUAGAGAAACUUUGAGUACAGAUACUGUGAGCUUACAUGGA", "bound/input enrichment [ratio]": 1.85}
{"Sequence": "UGCCCCCACCCACUGUGAGAGGGAAUGGGGGAAGCCUGAUGACCCUCAGCUGUUCCAAUCUAGUAUUUUUUUUUUCUUUUUUAAAAUUACUGUAUUUAUUAUGACGACGGUGACUCCCCA", "bound/input enrichment [ratio]": 3}
{"Sequence": "GCCCAGCACUUUGGUAAAAAGUGUGGACUGGCUGCUUGUAUUUUCCUUAUUCUUUCUGAUUAGUUUCAUUAUGUACGCCACCAUUCGAACUGAGAAUAUUAGGUGGCUAAUUCCGGGACA", "bound/input enrichment [ratio]": 1.4}
{"Sequence": "CAACUCAAUGGUUGAGGGCUCCGAACUCAAAAAGGUCCGUUCCAACUCCAGGAUUUACCAUCGGUACUUUUUGCUGGAUGCUGACAUGCAAAGCCUGAGGUGGGAGCCGUCUAAGAAGGA", "bound/input enrichment [ratio]": 0.146}
{"Sequence": "AGUCUCUUCUCCCCUGACCUGAUUUUAAAAGGCCCCUUUUUUUCUUUUCUUUUUUUAGACAUAUGUAGUAAUAGAAAGAUUUAAUUUGGGCAACUUUGAUUCUUAAAAGAGAAAGCAAAG", "bound/input enrichment [ratio]": 0.634}
{"Sequence": "AGAAACUUUUAGUCGUGAAUCUGAAGGUAGGAAUACGGGCCCAUGGUUAUCUUCCUCACUUAGAAAUAGAUGUACACCUUUGUUCUCUAGAAGGAGAAGAGAGGGAAGAGAUGAAUCUUC", "bound/input enrichment [ratio]": 0.806}
{"Sequence": "CUAGCCGCCUGGGAGAAAUGGAUGCUGGCCGGGAACAAACAGCGAAUCUCGGGUACGCUGCUACCCUCUGCACUACGGGGAAGUGGCUGUCCCUUCCCUGCUGGAGCCAGCUCUGUUUGG", "bound/input enrichment [ratio]": 0.334}
{"Sequence": "CAGCCAACUCACUUAUAGGAAGAGCUGCACACAUUGCUGUUCUGGAUUCAGAGAUAUUUUUGGAAAAAUUCUUUAUGGUUGCUGGCCUUAAAUAUUUUCAGUAAGAGGAGUCAGCAUGAA", "bound/input enrichment [ratio]": 0.445}
{"Sequence": "AGUAUCCCAGUUGUACCGUGUUGGGUUGGCAUUGUACAGAAAUUAACAGCCAUAUUGGUCUAGAAACGUUAAACAUAAUUUUUUCCAUUUGUACAGGGGUAACGCACUGUAUUAAAUAUG", "bound/input enrichment [ratio]": 1.1}
{"Sequence": "CAGCAAACUCCCUCAUUGGCCGCGCAGCGCACAUCGCCGUCCUGGAUUCUGAGAUCUUUCUGGAGAAGUUCUUCCUCGUUGCUGGCCUCAAAUACUUUCAGUAGAACAGAAUCGGAAUCA", "bound/input enrichment [ratio]": 0.285}
{"Sequence": "AGCUCUAGUUCUUAACAACAGACACUCCUAAGAUUUUAGAAAAGAGUUUACAACAUGACCUAGUUUACAAAAAGUCUUGUGCUGAAUACUUUUUAAAGUAUUUUUGAAUACCAUCAAAAC", "bound/input enrichment [ratio]": 0.798}
{"data": "Series 5", "target": "ABI1, truncated, D143A, DHFR fusion (Arabidopsis thaliana)", "technique": "DHFR PCA, deep sequencing", "matrix": "yeast", "notes": "methotrexate growth selection, single substitutions", "with": "(+)-ABA 0.39 µM", "reference": "wild-type fitted maximum", "direction": "higher = stronger binding", "starting sequence": "PYL1, truncated, DHFR fusion (Arabidopsis thaliana); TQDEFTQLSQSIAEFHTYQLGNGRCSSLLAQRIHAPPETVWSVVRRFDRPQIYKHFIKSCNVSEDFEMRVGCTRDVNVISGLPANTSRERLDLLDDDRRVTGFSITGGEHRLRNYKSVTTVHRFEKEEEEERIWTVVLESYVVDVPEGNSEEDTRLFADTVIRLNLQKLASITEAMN; partner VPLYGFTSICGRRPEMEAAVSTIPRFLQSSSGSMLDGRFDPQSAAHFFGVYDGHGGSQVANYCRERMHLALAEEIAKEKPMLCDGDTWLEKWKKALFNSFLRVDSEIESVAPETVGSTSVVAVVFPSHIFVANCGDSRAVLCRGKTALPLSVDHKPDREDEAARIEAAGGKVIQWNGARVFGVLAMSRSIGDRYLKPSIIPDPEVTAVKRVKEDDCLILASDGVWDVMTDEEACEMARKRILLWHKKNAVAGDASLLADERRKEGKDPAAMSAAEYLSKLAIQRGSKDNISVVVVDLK"}
{"Change": "V44E", "relative binding score [%]": 5.94}
{"Change": "E127H", "relative binding score [%]": 56.3}
{"Change": "L82K", "relative binding score [%]": 0.06}
{"Change": "A35M", "relative binding score [%]": -4.97}
{"Change": "D144V", "relative binding score [%]": -8.76}
{"Change": "A13Y", "relative binding score [%]": 8.18}
{"Change": "Q51C", "relative binding score [%]": 0.425}
{"Change": "F124I", "relative binding score [%]": 66.8}
{"Change": "N114L", "relative binding score [%]": -9.6}
{"Change": "P50Q", "relative binding score [%]": -31.2}
{"Change": "N77G", "relative binding score [%]": 26.5}
{"Change": "N165V", "relative binding score [%]": 11.7}
{"Change": "V62A", "relative binding score [%]": 6.47}
{"Change": "P50I", "relative binding score [%]": -13.7}
{"Change": "S117D", "relative binding score [%]": -5.32}
{"Change": "D65H", "relative binding score [%]": 29.6}
{"note": "Excerpt of the above (series 1):"}
{"Sequence": "CGCATGAG", "E-score": 0.342}
{"Sequence": "TGCGAAAA", "E-score": 0.274}
{"Sequence": "GCACACGC", "E-score": 0.427}
{"Sequence": "CGTCACAC", "E-score": 0.27}
{"Sequence": "GTGCTGCA", "E-score": 0.294}
{"Sequence": "CACGCATG", "E-score": 0.437}
{"Sequence": "ATGCGGCG", "E-score": 0.301}
{"Sequence": "GCCACACC", "E-score": 0.298}
